Measured values gathered from unrelated publications.
Each numbered part is a random draw from the data of one study; scales do not carry over between parts. Changes are numbered by the printed parent chain.

Block 1
Target: CCND1, cyclin fold, Cln2 fusion (human)
Technique: yeast growth competition, sequencing
Sample: yeast
Setting: weak parent motif
Reference: not given
Direction: higher = stronger binding
Parent: viral docking peptide; TSVRRALFTGGSD; partner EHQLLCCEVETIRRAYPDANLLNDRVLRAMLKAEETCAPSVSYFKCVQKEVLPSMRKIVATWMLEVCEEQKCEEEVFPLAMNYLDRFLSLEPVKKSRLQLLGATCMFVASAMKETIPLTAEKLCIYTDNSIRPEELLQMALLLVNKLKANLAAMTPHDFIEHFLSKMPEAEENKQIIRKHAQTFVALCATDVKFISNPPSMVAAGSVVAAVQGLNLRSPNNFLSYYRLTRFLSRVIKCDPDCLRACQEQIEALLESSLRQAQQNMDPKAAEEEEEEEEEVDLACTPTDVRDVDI
Under “normalised enrichment score”, `TSVRRALTTGGSD [F8T]` is recorded as -0.365.
Under “normalised enrichment score”, `TSVRRALFHGGSD [T9H]` is recorded as 0.373.
Under “normalised enrichment score”, `TSVRRALSTGGSD [F8S]` is recorded as -0.00891.
Under “normalised enrichment score”, `TSVMRALFTGGSD [R4M]` is recorded as 0.414.
`TSVRSALFTGGSD [R5S]`: “normalised enrichment score” 0.361.
Under “normalised enrichment score”, `TSVRRALDTGGSD [F8D]` is recorded as -0.0358.
Under “normalised enrichment score”, `TSVRRFLFTGGSD [A6F]` is recorded as 0.644.
`TSVRRALFTGTSD [G11T]`: “normalised enrichment score” 0.696.
`TSVRRALFTCGSD [G10C]`: “normalised enrichment score” 0.22.
For `TSARRALFTGGSD [V3A]`, “normalised enrichment score” read 1.27.
`TSDRRALFTGGSD [V3D]`: “normalised enrichment score” 0.0267.
Under “normalised enrichment score”, `TSYRRALFTGGSD [V3Y]` is recorded as 0.107.
`TSVRRALFTGGTD [S12T]`: “normalised enrichment score” 0.501.
`TKVRRALFTGGSD [S2K]` — result for “normalised enrichment score”: 0.392.
Under “normalised enrichment score”, `TSVRRALFTGFSD [G11F]` is recorded as 0.427.
`TSVRRNLFTGGSD [A6N]`: “normalised enrichment score” 0.134.

Block 2
Target: HLA class I histocompatibility antigen, C alpha chain, allele C*04:01 (Homo sapiens, UniProt P10321)
Read-out: peptide-MHC binding
Form: peptide
Concentration: concentration not given
`HTEFQTVSF` — result for binding: “inactive”.
For `KSLTTTMQFK`, binding read “inactive”.
`YTLNDAPYI`: binding “inactive”.
Under binding, `MTDVDLNYY` is recorded as “inactive”.

Block 3
Target: TAR DNA-binding protein 43, full length, His tag (TARDBP, Homo sapiens, UniProt Q13148, residues 1-414)
Technique: RNA Bind-n-Seq
Form: RNA
Sample: in vitro
Concentration: 20 nM
Setting: 6-mer, flanks averaged, single round
With: 150 mM LiCl
Reference: input library
Direction: higher = stronger binding
For `AGCCGG`, “6-mer enrichment (R)” read 0.915.
Under “6-mer enrichment (R)”, `CCAUUG` is recorded as 0.951.
For `GCAUUC`, “6-mer enrichment (R)” read 0.839.
For `CCUUCU`, “6-mer enrichment (R)” read 0.973.
Under “6-mer enrichment (R)”, `ACAAAU` is recorded as 0.883.
`ACGGAA`: “6-mer enrichment (R)” 0.864.
`GACGCA`: “6-mer enrichment (R)” 0.866.
For `AAAGGG`, “6-mer enrichment (R)” read 1.02.

Block 4
Target: RNA binding protein fox-1 homolog 2, RRM domain, GST-SBP tag (RBFOX2, Homo sapiens, UniProt O43251-10, residues 100-194)
Technique: RNA Bind-n-Seq
Form: RNA
Sample: in vitro
Concentration: 365 nM
Setting: natural RNA segment, single round, ends assumed
Reference: no-protein control
Direction: higher = stronger binding
Target sequence (chain): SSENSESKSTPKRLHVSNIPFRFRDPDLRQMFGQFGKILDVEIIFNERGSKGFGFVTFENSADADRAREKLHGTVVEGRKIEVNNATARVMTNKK
Under “RBNS enrichment (R)”, `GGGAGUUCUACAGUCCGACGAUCAGCACACUAUAACAUCUGCUGGAGUGUUGCUGUUGCACCAUACUUUCUUGUACAUUUGUGUCUCCCUUCCCAACUAGACUGUAAGUGCCUUGCGGUCAGGGACUGAAUCUUGGAAUUCUCGGGUGCCAA` is recorded as 0.366.
`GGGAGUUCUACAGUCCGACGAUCGCAGAAGAGCGUGGCCUCUCUUAUAGGGAAGAUGUAAUUAUGGAUCAAAGAGUGCUAAGAAAAUUGCGAAGAAGCCUUACUGCUUACACCAGAGAGCUCAGGGCAGCUUUUGGAAUUCUCGGGUGCCAA` — result for “RBNS enrichment (R)”: 0.417.
`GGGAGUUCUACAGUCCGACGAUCUCCCCGUGAAGGAGAGCCCUUCAUUUGGAGAUUAUGUUCUUUCGGGGAGAGGCUGAGGACUUAAAAUAUUCCUGCAUUUGUGAAAUGAUGGUGAAAGCACUGCUGCCCAGUGGAAUUCUCGGGUGCCAA`: “RBNS enrichment (R)” 0.348.
Under “RBNS enrichment (R)”, `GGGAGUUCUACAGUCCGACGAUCUCUUUACCUACUGCACUAACAAUGGCAAGGGGGGUAUUCUUUAUAUGUUGCCUUGUUUAACUACAGUUCUUUUCAUUCCAUCACUUUAGGUGAUGGGUAAGAUUUUUGAAUGGAAUUCUCGGGUGCCAA` is recorded as 0.4.
Under “RBNS enrichment (R)”, `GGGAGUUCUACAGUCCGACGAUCUGAAUGAGGGAAAGUCUGAUGCUAAGAUACUGCCUGCACUGGAAUGUCAAACACUAUAUAACAAGCUGUGGUUUUUAAAAGCUAUUGAAUAAUGUUUACAUUGGUCCCUGUGGAAUUCUCGGGUGCCAA` is recorded as 0.749.
Under “RBNS enrichment (R)”, `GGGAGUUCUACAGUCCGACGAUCCUUGCUUCCUAGUGCACUCGUUCAAUUGGAUUGGGGAGGAGACUGACUGUACUCACGGCUAACUUGAAGUAUUAAAAUGAGGCUGUACUCUACACACUUCCUAGUCACGCUGGAAUUCUCGGGUGCCAA` is recorded as 0.308.
`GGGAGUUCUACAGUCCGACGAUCUCAUCCCCAGCGAGGGUUUCCUCUCAGUCAUUUGUUUACCAGAAAGGAUGAAACUUGCCUGUUGGGGCGGAGCUGUCGCUCCUGAGGGGCCCCACCUUUACAUCCCAUCCUGGAAUUCUCGGGUGCCAA`: “RBNS enrichment (R)” 1.08.
`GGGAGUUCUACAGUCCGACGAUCCUUUUCAUUCUCCUCCUCCUCCCUCCUCACUCCCUAGGCCCAAGUCUCCUAGGGGCUUGGUCCUAGGGUGGGAAGGGGCUAGGGAGGACCAAAGGGAUGGUAUUGAGAAGUGGAAUUCUCGGGUGCCAA`: “RBNS enrichment (R)” 0.181.

A few entries again (block 1):
Under “normalised enrichment score”, `TSVMRALFTGGSD [R4M]` is recorded as 0.414.
`TSVRSALFTGGSD [R5S]`: “normalised enrichment score” 0.361.
Under “normalised enrichment score”, `TSVRRALSTGGSD [F8S]` is recorded as -0.00891.
`TKVRRALFTGGSD [S2K]` — result for “normalised enrichment score”: 0.392.
